Measurements collected from several papers.
Compare with care: the assays were run in different laboratories. Values joined by “and” are separate records of one study, mostly repeats; a detail may differ. ± marks the error that the study gave.

Structure (SMILES) | cell line | assay | test system | setting | scale | quantity | result
O=C(C[Se]C(=O)c1ccc2ccccc2c1)Nc1cccc(C(F)(F)F)c1 | NCI60 CNS subpanel | NCI60 five-dose screen |  |  |  | CC50 | 7.79 µM
COc1ccc(NC(=O)c2ccc3[nH]c(-c4ccc(N(C)C)cc4)nc3c2)cn1 | HCT-116 | Caspase-Glo luminescence |  | 8 µM, ISRIB pre-incubation, unit not given | baseline: DMSO | caspase-3/7 activity | 5.08
[2H]C([2H])([18F])[C@]([2H])(N)C(=O)O | U-87 MG |  |  | concentration not given, added: L-serine |  | inhibition of cellular uptake | 80%
CSCC[C@H](NC(=O)[C@@H](NC(=O)[C@H](CCC(N)=O)NC(=O)[C@H](CO)NC(=O)[C@@H](N)C(C)C)[C@@H](C)O)C(=O)N[C@@H](CCCNC(=N)N)C(=O)N[C@@H](CCC(N)=O)C(=O)N[C@H](C(=O)N[C@@H](C)C(=O)N[C@H](C(=O)N1CCC[C@H]1C(=O)N[C@@H](CC(C)C)C(=O)N[C@@H](CC(C)C)C(=O)N[C@@H](Cc1c[nH]c2ccccc12)C(=O)N[C@@H](Cc1ccccc1)C(=O)N[C@@H](Cc1c[nH]c2ccccc12)C(=O)N[C@H](C(=O)NCC(=O)N[C@@H](CO)C(=O)N[C@@H](CC(C)C)C(=O)NCCOCCOCCOCCOCCOCCOCCOCCOCCOCCOCCOCCOCCC(=O)N[C@@H](CS)C(N)=O)[C@@H](C)O)C(C)C)[C@@H](C)O | LNCaP prostate carcinoma | cell binding, phage binding, measured: output/input phage |  | 10 min, 37 °C | baseline: control phage | selectivity ratio | 1.8 ± 1.1
CC(C)(C)C(=O)OCOP(=O)(OCOC(=O)C(C)(C)C)C1CCCN(O)C1=O (stereo not drawn) | MDA-MB-231 |  |  |  |  | Log10GI50 | -6.4 log M
Cc1ccc(C(C)C)cc1.Cc1ccc(C(C)C)cc1.Cc1ccc(C(C)C)cc1.Cc1ccc(C(C)C)cc1.O=S(=O)(O)C(F)(F)F.O=S(=O)(O)C(F)(F)F.O=S(=O)(O)C(F)(F)F.O=S(=O)(O)C(F)(F)F.c1ccc2c3c4ccccc4c(c2c1)-c1cn(nn1)-c1cc[n+](cc1)[Ru-]1[O]c2ccc4c5c(ccc(c25)=[O+]1)=[O+][Ru-]([O]4)[n+]1ccc(cc1)-n1cc(nn1)-c1c2ccccc2c(c2ccccc12)-c1cn(nn1)-c1cc[n+](cc1)[Ru-]1[O]c2ccc4c5c(ccc(c25)=[O+]1)=[O+][Ru-]([O]4)[n+]1ccc(cc1)-n1cc-3nn1 | AGS | cell growth, MTT |  | 24 h, after 24 h preincubation in medium at 37 °C |  | IC50 | 5.9 ± 0.16 µM
Cc1[nH][n+]([Pt-2]([Cl])([n+]2[nH]c(C)c(CSC3CCCCC3)c2C)[n+]2[nH]c(C)c(CSC3CCCCC3)c2C)c(C)c1CSC1CCCCC1.[Cl-] | U-937 | cytotoxicity |  |  | baseline: IC50 HEK293 over IC50 U-937 | selectivity index | 2.5
O=c1n(CCNCCOS(=O)(=O)c2ccccc2)c(=O)n(S(=O)(=O)c2ccccc2)c(=O)n1S(=O)(=O)c1ccccc1 | A549 | cell growth or viability, MTT |  | 100 µg/mL, 48 h |  | viability | 28.2%
CC1CCC2C(C)C(OC(=O)CCC(=O)N3CCC(Nc4ccc(S(=O)(=O)NC(=O)c5ccc(N6CCN(CC7=C(c8ccc(Cl)cc8)CC(C)(C)CC7)CC6)cc5Oc5cnc6[nH]ccc6c5)cc4[N+](=O)[O-])CC3)OC3OC4(C)CCC1C32OO4 (stereo not drawn) | THP-1 | annexin V/PI flow cytometry, measured: annexin V-/PI+ |  | 0.4 µM, 24 h |  | necrotic cells | 0.6%
O=c1c(O)c(-c2ccc(O)c(O)c2)oc2cc(O)cc(O)c12 | SH-SY5Y Aβ-GFP cells | ROS reduction, CellROX |  |  |  | EC50 | 6.8 µM
C[C@H]1O[C@@H]2C3=C(O[C@]2(C)[C@@]1(O)C=O)C(=O)c1c(O)cccc1C3=O | MDA-MB-231 and Vero | MTT |  |  | baseline: CC50 Vero over EC50 MDA-MB-231 | selectivity index | 2.67
COc1ccccc1-c1ccncc1C(=O)Nc1nnc(OCc2ccc(Cl)cc2)s1 | RPE-1 BRCA1 WT parental |  |  | 8 µM, average of 2 runs | baseline: untreated | colony survival | 75.7%
O=C(C[Se]C(=O)c1cc2ccccc2s1)Nc1cccc(C(F)(F)F)c1 | NCI60 colon subpanel | NCI60 five-dose screen |  |  |  | CC50 | 19.1 µM
N[C@H](C(=O)N1CCCC1)C1CCN(c2nccc3c(-c4ncc(Cl)cc4Cl)cccc23)CC1 | human neutrophils | protein citrullination, inhibitor, flow cytometry, measured: citrullinated proteins |  | 1 µM, added: ionomycin |  | inhibition | 44.4% and 26% and 41.1% and 47.7%
Cc1cc(Oc2nc(N3CC[C@@H](c4ccncc4)C3)ncc2F)[nH]n1 | HCT-116 | cell proliferation | colon cancer |  |  | IC50 | 47.9 µM
CC(C)C[C@H](NC(=O)[C@H](CCC(=O)O)NC(=O)[C@@H](N)Cc1ccccc1)C(=O)N[C@@H](CCC(=O)O)C(=O)N[C@@H](CCCNC(=N)N)C(=O)N[C@@H](CCCNC(=N)N)C(=O)N[C@@H](Cc1ccccc1)C(=O)N[C@@H](CCCCN)C(=O)N[C@@H](CCC(N)=O)C(=O)N[C@@H](CCC(N)=O)C(=O)O | HCT-116 | transwell |  | concentration not given |  | migration | 113% and 98.6%
N[C@@H]1C[C@H]1c1ccccc1 (racemic) | MOLM-13 | cell growth or viability, resazurin |  | 96 h |  | EC50 | > 2 µM
O=C(C[Se]C(=O)c1ccccc1)Nc1cccc(C(F)(F)F)c1 | NCI60 CNS subpanel | cell growth |  | 10 µM, 48 h, one-dose |  | mean growth percent | -83.5%
CC(=O)NCSC[C@H](NC(=O)[C@@H]1CCCN1C(=O)[C@H](C)NC(=O)[C@@H](NC(=O)CNC(=O)[C@@H](NC(=O)[C@H](Cc1c[nH]c2ccccc12)NC(=O)[C@H](C)NC(=O)CNC(=O)[C@H](CO)NC(=O)[C@H](C)NC(=O)[C@@H]1CCCN1C(=O)[C@H](Cc1c[nH]c2ccccc12)NC(=O)[C@H](C)NC(=O)[C@H](C)NC(=O)[C@@H](N)Cc1ccc(O)cc1)[C@@H](C)O)[C@@H](C)O)C(=O)N[C@@H](CO)C(=O)N[C@@H](C)C(=O)NCC(=O)N[C@H](C(=O)NCCOCCOCCOCCOCCOCCOCCOCCOCCOCCOCCOCCOCCC(=O)N[C@@H](CS)C(N)=O)[C@@H](C)O | BEAS-2B bronchial epithelial | cell binding, phage binding, measured: output/input phage |  | 10 min, 37 °C | baseline: control phage | selectivity ratio | 3.1 ± 0.67
O=C(O)c1ccc(-c2nc(-c3ccccc3Cl)c3sccn23)cc1 | K562 | erythroid differentiation, flow cytometry |  | 0.01 mM, 72 h, unit not given | baseline: untreated | CD71 fluorescence intensity | 1
O=C(C[Se]C(=O)c1cccs1)Nc1cccc(C(F)(F)F)c1 | NCI60 breast subpanel | NCI60 five-dose screen |  |  |  | GI50 | 1.93 µM
CC(C)C[C@H](NC(=O)[C@H](CC(=O)O)NC(=O)CNC(=O)[C@@H](N)CCCNC(=N)N)C(=O)N[C@@H](C)C(=O)N[C@H](C(=O)N[C@@H](CC(C)C)C(=O)N[C@@H](CCCNC(=N)N)C(=O)N[C@@H](CCC(N)=O)C(=O)N[C@@H](CC(C)C)C(=O)N[C@@H](C)C(=O)N[C@@H](CCC(N)=O)C(=O)N[C@@H](CCC(=O)O)C(=O)N[C@@H](CC(=O)O)C(=O)NCC(=O)N[C@H](C(=O)N[C@H](C(=O)NCC(=O)N[C@H](C(=O)N[C@@H](CCCNC(=N)N)C(=O)NCCOCCOCCOCCOCCOCCOCCOCCOCCOCCOCCOCCOCCC(=O)N[C@@H](CS)C(N)=O)C(C)C)C(C)C)C(C)C)[C@@H](C)O | MDA-MB-231 breast cancer | cell binding, phage binding, measured: output/input phage |  | 10 min, 37 °C | baseline: control phage | selectivity ratio | 1 ± 0.23
O=C(C[Se]C(=O)c1ccccc1Nc1cccc(C(F)(F)F)c1)Nc1cccc(C(F)(F)F)c1 | NCI60 CNS subpanel | NCI60 five-dose screen |  |  |  | CC50 | 6.41 µM
CC[C@H](C)[C@H](NC(=O)[C@@H](NC(=O)[C@@H]1CCCN1C(=O)[C@@H](NC(=O)[C@@H](NC(=O)[C@H](Cc1c[nH]cn1)NC(=O)[C@@H]1CCCN1C(=O)[C@H](CC(C)C)NC(=O)[C@@H](NC(=O)[C@H](Cc1c[nH]cn1)NC(=O)[C@H](CCCCN)NC(=O)[C@H](C)NC(=O)[C@H](CO)NC(=O)CNC(=O)[C@H](CC(C)C)NC(=O)[C@@H](NC(=O)CNC(=O)[C@H](Cc1ccccc1)NC(=O)[C@H](CC(C)C)NC(=O)CNC(=O)[C@@H](N)Cc1ccc(O)cc1)C(C)C)C(C)C)C(C)C)C(C)C)C(C)C)C(=O)N[C@@H](C)C(=O)N[C@@H](CCC(=O)O)C(=O)N[C@@H](Cc1c[nH]cn1)C(=O)N[C@@H](CC(C)C)C(N)=O | HepG2 | MTT |  | 40 µg/mL, 24 h |  | viability | 96.7 ± 3.55%
